Measurements of several laboratories.
Each numbered part is a random draw from the data of one study; scales do not carry over between parts.

Set 1 — technique: universal PBM; molecule type: double-stranded DNA, one strand shown; sample: in vitro; tested at: not given; reading: higher = stronger binding
Target: Sal-like protein 4, full length isoform B (SALL4, Homo sapiens, UniProt Q9UJQ4-2, residues 1-616)
Notes: 8-mer, flanks averaged, mean of replicates
`CACGTGCA` has an E-score of -0.112.
`CCACCGGG` gave an E-score of -0.372.
`GTCCTTAA` gave an E-score of 0.166.
The E-score of `ATCGGAAA` is reported as 0.178.
The E-score of `ACTAGACG` is reported as 0.159.
For `ACAGTCGC`, the E-score was -0.186.
For `CTCTTCCC`, the E-score was -0.0603.
The E-score of `AGAACACT` is reported as -0.0505.
`CGACATTC` gave an E-score of -0.0489.
The E-score of `CCGACACA` is reported as -0.0993.
With `ACAAGTCG` the E-score was -0.0656.
For `ATCGAGTA`, the E-score was -0.0727.
`AGCCAAAT` gave an E-score of -0.0444.
`AAGGATCC` gave an E-score of -0.194.
For `AGCCAGTG`, the E-score was -0.27.
`GTGTCCGA` gave an E-score of -0.0968.
For `GAAGCTCC`, the E-score was -0.287.
`AGAGAGTG` has an E-score of -0.193.
For `CCGGTTAC`, the E-score was -0.296.
`CTGCTTGC` has an E-score of -0.0416.

Set 2 — technique: RNA Bind-n-Seq; molecule type: RNA; sample: in vitro; tested at: not given; reference: input RNA pool; reading: higher = stronger binding
Target: RING finger protein unkempt homolog, zinc fingers 1-6, GST-SBP tag (UNK, Homo sapiens, UniProt Q9C0B0, residues 30-357)
Notes: RNA with constant flanks, human-mouse chimeric sites, ends assumed
Residues (chain): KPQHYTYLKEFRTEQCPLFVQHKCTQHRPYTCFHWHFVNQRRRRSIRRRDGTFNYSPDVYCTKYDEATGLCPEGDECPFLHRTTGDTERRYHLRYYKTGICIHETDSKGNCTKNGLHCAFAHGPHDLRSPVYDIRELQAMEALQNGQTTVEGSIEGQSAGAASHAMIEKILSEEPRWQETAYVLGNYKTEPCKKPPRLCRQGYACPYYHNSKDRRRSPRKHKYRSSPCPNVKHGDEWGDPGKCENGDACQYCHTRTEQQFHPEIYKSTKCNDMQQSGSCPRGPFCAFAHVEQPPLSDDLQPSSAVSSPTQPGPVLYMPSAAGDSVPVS
For `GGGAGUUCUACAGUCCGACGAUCGCGGCAGAAUCAUGGAGGACAUAAUGCACUUGCCCAGGUCGCGCAUCAACGCCAGCAUGUUACCACAGUAUAUCGACCGGCCCGUGUGCUUCGUGGGGAAGCUGGAAAAGAUUCAUCCCACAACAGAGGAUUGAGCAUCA`, the bound/input enrichment was 0.083 ratio.
With `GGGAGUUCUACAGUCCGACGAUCGUGCCCUUCUCGCUGCUGCGGAGCCCGAGCUGGGAACCAUUCCGGGACUGGUACCCUGCACACAGCCGCCUCUUCGACCAGGCCUUCGGGGUGCCCCGGCUGCCGGAUGAGUGGUCGCAGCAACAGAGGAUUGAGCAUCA` the bound/input enrichment was 0.0546 ratio.
For `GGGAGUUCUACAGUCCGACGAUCAACGUGGAGUUGAGUUCGCUGGCCCGGCUUCCCAGCUUGAAUAAACUCCGGAAGUUGGAACUUAGUGACAAUAUAAUUUCUGGAGGCUUGGAAGUCCUGGCAGAGAAAUGUCCAAAUCUUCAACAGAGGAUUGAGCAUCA`, the bound/input enrichment was 0.329 ratio.
`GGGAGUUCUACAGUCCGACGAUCAUCAAAUACUUUGGGGAUAUUAUUAGCGUGGGACAGAGAUUGUUGCAAGGAGCUCGGAUCUUAGGGAUUCCAGUUAUCAUAACGGAACAAUACCCCAAAGGACUUGGCAGCACCGUUCAACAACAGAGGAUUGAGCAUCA` has a bound/input enrichment of 0.336 ratio.
`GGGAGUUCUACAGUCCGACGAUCCGGAGCCCUCCUCUCCCACAGGCCCAAGAUAUAACCCACCAGUGCCUUUUGUCUUCCCGUUAGCUUUAAUCAAUCAUCCUGUCCUCUCACGCCCACACCAAGUGCCCAAAGUGGGGAGGGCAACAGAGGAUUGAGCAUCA` gave a bound/input enrichment of 45.5 ratio.
With `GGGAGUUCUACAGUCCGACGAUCCUUUUUAAGAAGAUAUGUGAUGGGAUCUUCUAUACCCCUCAGUACUUAAAUCCUUCUGUAAUCAGCCUUUUGAAACAUAUGCUGCAGGUGGAUCCCAUGAAGAGGGCCGCAAUAAAAGAUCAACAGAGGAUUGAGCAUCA` the bound/input enrichment was 0.194 ratio.
The bound/input enrichment of `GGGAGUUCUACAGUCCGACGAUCGGCCUGGGACCGUCCUGGGCUAGUACAAAUAGCGGCAUGGAGGCUCAGAGAGGAAAGUUUGUUAGUGAGGCAGUGGUUAGAGGCCGUCAUGUACGGUCCUUUACUCGAUAGAUGUGUUCUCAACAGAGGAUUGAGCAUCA` is reported as 0.74 ratio.
The bound/input enrichment of `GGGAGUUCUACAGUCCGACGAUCGGAAGUACAAUGAUGGAGAUUGAUGGUGACAAAGGCAAACAAGGCGGGCCCACCUACUACAUAGAUACCAAUGCCCUCCGCGUGCCCAGGGAGAACAUGGAGGCCAUCUCACCACUCAAGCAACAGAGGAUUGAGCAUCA` is reported as 0.273 ratio.
With `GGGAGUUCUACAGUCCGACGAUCGGUGGGGUGGUCAUUGCCGUUUGAGCUGCUGAUUUUCUUAUGAAUCAUUCAAAACUCUCGUGUAGGGUUGACAAUGUAAGGGGUGGGGGGAUCCAGCUUAUUCUUUUAUUUUCAAGUCCACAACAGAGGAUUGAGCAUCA` the bound/input enrichment was 0.535 ratio.
`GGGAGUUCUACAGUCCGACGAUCCUGAAAAACACAGAUAUCAAAGUUGUUGACUUUGGAAGUGCAACGUAUGAUGAUGAACAUCAUAGUACUUUGGUGUCUACCCGGCACUACAGAGCUCCCGAGGUCAUUUUGGCUCUAGGUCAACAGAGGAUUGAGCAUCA` gave a bound/input enrichment of 0.264 ratio.
For `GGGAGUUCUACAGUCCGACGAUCGAAUCCUACUCAGGCGGAUUUUGCAACACCAAGCUCACAGCAGCAGCUCCAUAGUCACAGUAGGGUAGUUUUGGGGCUCUGUGGCCAGGGUUUUAUUCACAUGCAGGUUUGGAAAAUGUACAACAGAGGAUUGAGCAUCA`, the bound/input enrichment was 0.7 ratio.

Set 3 — technique: protein binding microarray; molecule type: double-stranded DNA, one strand shown; sample: in vitro; tested at: not given; reference: not given; reading: higher = stronger binding
Target: Histone acetyltransferase KAT6A, both winged helices, GST fusion (KAT6A, Homo sapiens, UniProt Q92794, residues 1-181)
Notes: 8-mer, flanks averaged, mean of 2 arrays, mostly near background
Residues (chain): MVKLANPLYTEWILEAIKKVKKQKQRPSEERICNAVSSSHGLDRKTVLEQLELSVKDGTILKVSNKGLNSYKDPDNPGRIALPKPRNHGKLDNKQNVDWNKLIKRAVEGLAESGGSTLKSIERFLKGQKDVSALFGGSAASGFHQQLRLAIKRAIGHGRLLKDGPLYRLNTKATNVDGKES
For `GGTACGTA`, the E-score was -0.0962.
With `CGCACTAA` the E-score was 0.0556.
`GCGTGGTA` gave an E-score of 0.14.
For `CCGTCGAA`, the E-score was 0.191.
`GATGCGGC` has an E-score of 0.194.
`CTAAACCA` gave an E-score of 0.0224.
With `CATTGGCA` the E-score was -0.179.
`ATATCAAA` has an E-score of -0.0827.
`GTCCAGAA` has an E-score of 0.0656.
For `AGGACGCC`, the E-score was 0.065.
`GGAGTGAC` has an E-score of -0.0361.
The E-score of `ATCACGAG` is reported as -0.146.
With `CATTCCCG` the E-score was 0.244.
With `GCTGGCAA` the E-score was -0.0848.
`GCCACGGC` gave an E-score of 0.299.
The E-score of `AATCAATA` is reported as -0.0739.
`ACCTGCCC` gave an E-score of -0.0772.
The E-score of `AGGGGGAG` is reported as -0.314.

Set 4 — technique: RNA Bind-n-Seq; molecule type: RNA; sample: in vitro; tested at: 365 nM; reference: no-protein control; reading: higher = stronger binding
Target: RNA binding protein fox-1 homolog 2, RRM domain, GST-SBP tag (RBFOX2, Homo sapiens, UniProt O43251-10, residues 100-194)
Notes: natural RNA segment, single round, ends assumed
Residues (chain): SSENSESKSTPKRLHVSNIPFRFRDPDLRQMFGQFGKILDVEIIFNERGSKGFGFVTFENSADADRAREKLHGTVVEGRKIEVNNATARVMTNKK
Under “RBNS enrichment (R)”, `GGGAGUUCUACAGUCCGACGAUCCCUACCCACCCAAAGAUAGAUAUCCUUUAAAGAAAAUAAAGGCAGAGAAUUAAAACUGGGGAGCCAUUUACUAUGUCACCAUCACUGUUAACUGUUUCCCAGCAAUCUAAUGGAAUUCUCGGGUGCCAA` is recorded as 0.695.
`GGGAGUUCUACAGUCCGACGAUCGUAAAAAGUGUCUUUUCUCUUAGUAUAUAAAUAAAUAAAAUGCAAAUUAAGAGUGUAAGCAGUUGUGAAUCAUUACAAGCAGUCUGGGAUAACUAACUCCUAGGGAUAACUGGAAUUCUCGGGUGCCAA`: “RBNS enrichment (R)” 0.43.
For `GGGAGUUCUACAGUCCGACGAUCUCUGUAGUGUUUGUGGGGAUAGGUUCCAUGCAAGAACACCUUCCUCCUCCAUCCCCCACUUCACCCCAUCCCAUACCAGUUCCAUCCAGGGUCUGCUUAACUGCCAAGAGUGGAAUUCUCGGGUGCCAA`, “RBNS enrichment (R)” read 0.995.
`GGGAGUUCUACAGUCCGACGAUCUAUUUUGCGAAACAAAACAAAACAAAAAAAAAAGCUUGGAACUCCAUCACGUGGAAAAACUAGAUCCUGUUGGUUAUAGCAUUUGUGAGUUCUCCACGUCUGUCUCUCUCUGGAAUUCUCGGGUGCCAA` — result for “RBNS enrichment (R)”: 0.695.
Under “RBNS enrichment (R)”, `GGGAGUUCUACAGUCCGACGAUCCUGAAGCACUUACAUUUAGUUGUUGAAAGCAGUAGUAGCAGACCAAGCUAGCCCCUUAUCCAGCCAACACUGCACCUAACCCCAGGGAUUUGCUACCAGAGCAAACUCAGUGGAAUUCUCGGGUGCCAA` is recorded as 0.337.
`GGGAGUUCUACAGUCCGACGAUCACUUAAGUAUGGGAUACAGCACAUGGAUGCACCCCUCUGUGUGUCAGGCAUCCUCCAUGUGGACUCACUGUGCUGUUGGGACUGAAACACUAACUUUGUAAAAUGUGUCUUGGAAUUCUCGGGUGCCAA` — result for “RBNS enrichment (R)”: 0.653.
`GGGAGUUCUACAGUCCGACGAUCACACCCAUGGUUCAAAGUCUGGUGUUGACCCUAGAUAGCUAUGUGACUGUGGGUGGACCAUCUCCCCUCUCCGAGCUGUAGACAAAGGAGCUUAGACGCCACAUCAGGGUUGGAAUUCUCGGGUGCCAA` — result for “RBNS enrichment (R)”: 0.525.
`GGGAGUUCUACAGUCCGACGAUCGUGUUAUGGGUGUACAUAUUUGUAUAUUUUUUGUCAUCCUGAGAUACUUCUAAUUUCAUUGUAUAUAGGUGGUUUUCCCUGGAAUUCAUUAAUUGUUUGCUUUGGACAUGUGGAAUUCUCGGGUGCCAA`: “RBNS enrichment (R)” 1.49.
`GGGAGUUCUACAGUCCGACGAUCGGUCAACGUGAGGGGCUUACAUUCUGGGUUUGAUAAGAAAAGUGUUCAUUCAUGACUGCUAUGUCCUGAGAAAAGUUCCGAUUUCUUUUAACAAAUGUCAUCAUGAUUAAUGGAAUUCUCGGGUGCCAA`: “RBNS enrichment (R)” 0.349.
